Experimental data pooled from the literature.
Each line is one published result; not all experiments were run side by side. Several values in a cell are separate wells, animals, samples, runs or records. ± gives the spread as reported.

Compound | tested on | test | system | setting | endpoint | result
CO[C@H]1C[C@@H]2CC[C@@H](C)[C@@](O)(O2)C(=O)C(=O)N2CCCC[C@H]2C(=O)O[C@H]([C@H](C)C[C@@H]2CC[C@@H](OC(=O)NCCOCCOCCOCCOCCOCCOCCOCCOCCC(=O)N3CCc4cc(Cn5nc(-c6ccc7oc(N)nc7c6)c6c(N)ncnc65)ccc4C3)[C@H](OC)C2)C[C@@H](O)[C@H](C)/C=C(\C)[C@@H](O)[C@@H](OC)C(=O)[C@H](C)C[C@H](C)/C=C/C=C/C=C/1C | – | – | human patients, plasma | intravenous, 1.6 mg, cycle 1 day 15, weekly dosing | AUClast | 98.6 ng·h/mL
NS(=O)(=O)c1ccc(CNc2nc(Nc3cccc(NC(=O)N4CCCC4)c3)ncc2C2CC2)cc1 | – | PAMPA | PBS | 5 h, pH 7.4 | effective permeability | 2.6 ×10⁻⁶ cm/s
O=C(Nc1cnccc1Cl)N1CCN(Cc2ccc3c(c2)OC(F)(F)O3)CC1 | – | – | healthy young men, plasma | oral, 25 mg once daily, day 1 | AUC(0-24) | 1200 ng·h/mL
Cc1cc(NC2CCN(C(=O)OC3CCN(C(=O)/C=C/CN(C)C)C3)CC2)n2ncc(C(C)C)c2n1 (centres unmarked) | – | Phase I dose escalation CTCAE v4.0, measured: peripheral oedema | patients with advanced solid tumours | dose not given, Total dosing grade 3 or higher | patients with adverse event | 0%
O=C(O)c1cccc(C(=O)O)c1 | – | – | betaine/glycerol DES-water | DES mass fraction 0.20 | apparent dissolution enthalpy | 5.92 kcal/mol
O=C(N[C@H](Cc1c[nH]c2ccccc12)C(=O)Nc1ccncc1)c1ccc(-c2ccc(F)c(C(F)(F)F)c2)cc1F | – | – | Swiss Webster mouse, female, muscle | oral, 50 mg/kg, 8 h, 20% HPβCD vehicle | concentration | 4.03 µM
CC(O)CN(CCN(CC(C)O)CC(C)O)CC(C)O (centres unmarked) | THP-1 | pyroptotic LDH release | – | 2 µM, 40 min, with: LPS then nigericin | inhibition | -18.2%
C=CCN1CC(=O)N2[C@@H](Cc3ccc(O)cc3F)C(=O)N(Cc3cccc(N4CC(N5CCN(CC)CC5)C4)n3)C[C@@H]2N1C(=O)NCc1ccccc1 | – | measured: Vomiting | advanced solid tumour patients | all doses, expansion part, grade ≥3 | treatment-related adverse events | 0%
CC1(O)CCC(C(C)(C)O)CC1 (centres unmarked) | THP-1 | pyroptotic LDH release | – | 2 µM, 40 min, with: LPS then nigericin | inhibition | 27.3%
CCN1CCN(Cc2ccc(NC(=O)c3ccc(C)c(NC(=O)c4cncc(-c5cccs5)c4)c3)cc2C(F)(F)F)CC1 | – | LC-MS/MS | C57BL/6 mouse, plasma | intraperitoneal, 10 mg/kg single dose, 4 h | plasma concentration | 94 ng/mL and 86 ng/mL and 91 ng/mL
CN(C)CCCNC(=O)/C(=C/CCCCC(=O)NO)COc1cccc2ccccc12 | – | – | human patients | intravenous, 187.5 mg/m2, day 1, single dose, mean | terminal volume of distribution | 67.3 L
CCCC1CCC(c2ccc(OCC)c(F)c2F)CC1 (centres unmarked) | – | – | rat, fetus | 10 ng/mL in perfusate, low dose, mixture of 21 LCMs | fetal accumulation | 0.176 ± 0.132 ng/g
O=C(Nc1nc2cccc(-c3ccc(CN4CCS(=O)(=O)CC4)cc3)n2n1)C1CC1 | – | measured: pharyngitis | human rheumatoid arthritis patients | oral, 30 mg once daily, 4 weeks, regardless of relatedness | treatment-emergent adverse events | 0%
CC(=O)N[C@@H](CC(N)=O)C(=O)N[C@@H](CCCNC(=N)N)C(=O)N[C@@H](CC(C)C)C(=O)N[C@H]1CSSC[C@@H](C(=O)N[C@H](C(N)=O)[C@@H](C)O)NC(=O)[C@H](CCCNC(=N)N)NC(=O)[C@H](Cc2c[nH]cn2)NC(=O)[C@H](C)NC(=O)CNC(=O)[C@H](Cc2c[nH]c3ccccc23)NC(=O)[C@H](CC(=O)O)NC(=O)[C@H](CCC(N)=O)NC(=O)[C@H](Cc2c[nH]c3ccccc23)NC(=O)[C@H](C(C)C)NC1=O | – | RP-HPLC, C18 | 28% acetonitrile isocratic | pH 7.4 | retention factor | 1.469 ± 0.009
O=C(O)CCC(=O)O.[2H]C([2H])([2H])Oc1cc(C)c2[nH]ccc2c1CN1CC[C@@H](C2CC2)C[C@H]1c1ccc(C(=O)O)cc1 | – | – | human, plasma | 125 mg twice daily, day 10, multiple ascending dose, median | Tmax | 2.25 h
Cc1ccc(O)c(-n2nc3ccccc3n2)c1 | – | exposure assessment | human, age 16-21 years | concentration not given, spray sunscreen, 95th percentile | daily dermal uptake, percentile | 2710 ng/kg body weight/day
C[C@@H]1OC(=O)[C@H](Cc2ccccc2)[C@H]1O | – | – | laying hens, female, fat | oral, 10.7 mg/kg dry feed, 7 days | share of total radioactive residue | ≤ 28.4 % TRR
CC(C)NCCCC[C@@H]1NC(=O)[C@H](Cc2ccc(O)cc2)NC(=O)[C@H](Cc2ccccc2)NC(=O)CC[C@H](C(=O)N[C@@H](CCCCNC(C)C)C(=O)N[C@@H](CCCCNC(=O)[C@H](CCC(=O)O)NC(=O)[C@H](CCC(=O)O)NC(=O)[C@H](CCC(=O)O)NC(=O)CN2CCN(CC(=O)O)CCN(CC(=O)O)CCN(CC(=O)O)CC2)C(N)=O)NC(=O)CNC(=O)[C@H](Cc2ccc3ccccc3c2)NC(=O)[C@@H](CCCNC(=N)N)NC1=O [gallium-68 labelled] | – | – | mouse with Daudi xenograft, intestine | intravenous, 2 h | tissue uptake | 0.12 %ID/g
CC[C@H](C)CCCCC(=O)N[C@@H](CCN)C(=O)N[C@H](C(=O)N[C@@H](CCN)C(=O)N[C@H]1CCNC(=O)[C@H]([C@@H](C)O)NC(=O)[C@H](CCN)NC(=O)[C@H](CCN)NC(=O)[C@H](CC(C)C)NC(=O)[C@@H](Cc2ccccc2)NC(=O)[C@H](CCN)NC1=O)[C@@H](C)O | – | – | human, mild renal insufficiency, urine | intravenous, 0.75 mg/kg, 0-12 h, arithmetic mean | urinary excretion | 1.53%
Cl.[2H]C([2H])([2H])CC(=O)c1cnc(NC(=O)C2CC2)cc1Nc1cccc(-c2ncn(C([2H])([2H])[2H])n2)c1OC | – | geometric mean | human | 17.5 mg single dose, fasted, liquid | CL/F | 9.1 L/h
